# Results collected from several papers.
# A part holds a random share of what one study measured.
# Sequence of UniProt Q6P2M8 (whole entry, looked up): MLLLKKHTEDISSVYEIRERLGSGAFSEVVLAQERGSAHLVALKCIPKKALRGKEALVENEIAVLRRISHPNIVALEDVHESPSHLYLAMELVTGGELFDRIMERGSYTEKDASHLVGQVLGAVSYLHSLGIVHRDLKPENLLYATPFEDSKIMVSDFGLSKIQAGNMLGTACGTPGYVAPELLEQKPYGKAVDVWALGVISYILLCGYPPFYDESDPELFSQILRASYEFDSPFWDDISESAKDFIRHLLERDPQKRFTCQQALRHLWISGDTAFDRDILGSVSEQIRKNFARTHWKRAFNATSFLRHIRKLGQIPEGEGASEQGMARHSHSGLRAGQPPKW
# Sequence of UniProt P22607 (whole entry, unmodified, looked up): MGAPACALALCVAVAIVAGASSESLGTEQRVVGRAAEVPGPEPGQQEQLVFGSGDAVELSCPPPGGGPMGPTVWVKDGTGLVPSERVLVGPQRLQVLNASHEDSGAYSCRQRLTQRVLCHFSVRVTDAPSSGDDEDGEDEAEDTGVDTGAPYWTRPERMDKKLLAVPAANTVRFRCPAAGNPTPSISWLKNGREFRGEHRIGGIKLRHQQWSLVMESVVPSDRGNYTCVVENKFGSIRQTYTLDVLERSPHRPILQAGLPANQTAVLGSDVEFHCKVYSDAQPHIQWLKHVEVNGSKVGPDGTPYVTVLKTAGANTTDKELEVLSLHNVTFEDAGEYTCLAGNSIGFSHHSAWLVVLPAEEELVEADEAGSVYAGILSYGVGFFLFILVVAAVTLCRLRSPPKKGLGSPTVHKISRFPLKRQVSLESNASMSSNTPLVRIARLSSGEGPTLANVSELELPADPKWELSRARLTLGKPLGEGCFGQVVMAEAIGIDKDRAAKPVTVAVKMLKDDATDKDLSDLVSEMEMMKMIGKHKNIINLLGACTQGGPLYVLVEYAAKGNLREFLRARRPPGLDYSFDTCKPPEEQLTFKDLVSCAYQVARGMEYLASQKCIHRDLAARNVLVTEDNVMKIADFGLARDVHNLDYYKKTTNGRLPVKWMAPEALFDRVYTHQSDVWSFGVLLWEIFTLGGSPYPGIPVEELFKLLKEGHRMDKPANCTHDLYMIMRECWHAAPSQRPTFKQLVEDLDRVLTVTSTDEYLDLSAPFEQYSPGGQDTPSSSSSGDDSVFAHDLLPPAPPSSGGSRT
# Sequence of UniProt P06239 (whole entry, looked up): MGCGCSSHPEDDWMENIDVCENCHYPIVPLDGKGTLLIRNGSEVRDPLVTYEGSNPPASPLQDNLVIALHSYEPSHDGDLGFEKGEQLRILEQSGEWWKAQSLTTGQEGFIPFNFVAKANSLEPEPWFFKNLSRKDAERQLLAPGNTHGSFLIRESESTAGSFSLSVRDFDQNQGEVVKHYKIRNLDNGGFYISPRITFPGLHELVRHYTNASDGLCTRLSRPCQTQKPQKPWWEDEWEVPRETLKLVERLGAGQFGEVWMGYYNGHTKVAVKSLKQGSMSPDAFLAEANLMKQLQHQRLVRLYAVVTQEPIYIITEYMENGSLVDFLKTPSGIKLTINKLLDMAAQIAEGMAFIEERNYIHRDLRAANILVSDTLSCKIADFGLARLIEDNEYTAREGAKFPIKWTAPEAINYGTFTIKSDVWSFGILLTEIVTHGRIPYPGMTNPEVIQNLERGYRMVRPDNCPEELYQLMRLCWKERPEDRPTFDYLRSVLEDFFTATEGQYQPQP
# Sequence of UniProt Q96GD4 (whole entry, looked up): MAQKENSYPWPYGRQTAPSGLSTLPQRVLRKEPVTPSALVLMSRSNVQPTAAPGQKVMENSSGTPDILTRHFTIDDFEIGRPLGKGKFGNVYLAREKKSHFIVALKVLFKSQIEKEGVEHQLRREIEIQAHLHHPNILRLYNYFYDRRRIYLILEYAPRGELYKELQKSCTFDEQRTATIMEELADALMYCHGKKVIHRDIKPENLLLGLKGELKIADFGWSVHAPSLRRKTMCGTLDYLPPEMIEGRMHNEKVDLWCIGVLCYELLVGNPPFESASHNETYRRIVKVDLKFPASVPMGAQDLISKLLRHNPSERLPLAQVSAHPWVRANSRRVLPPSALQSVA
# Sequence of UniProt Q15208 (whole entry, looked up): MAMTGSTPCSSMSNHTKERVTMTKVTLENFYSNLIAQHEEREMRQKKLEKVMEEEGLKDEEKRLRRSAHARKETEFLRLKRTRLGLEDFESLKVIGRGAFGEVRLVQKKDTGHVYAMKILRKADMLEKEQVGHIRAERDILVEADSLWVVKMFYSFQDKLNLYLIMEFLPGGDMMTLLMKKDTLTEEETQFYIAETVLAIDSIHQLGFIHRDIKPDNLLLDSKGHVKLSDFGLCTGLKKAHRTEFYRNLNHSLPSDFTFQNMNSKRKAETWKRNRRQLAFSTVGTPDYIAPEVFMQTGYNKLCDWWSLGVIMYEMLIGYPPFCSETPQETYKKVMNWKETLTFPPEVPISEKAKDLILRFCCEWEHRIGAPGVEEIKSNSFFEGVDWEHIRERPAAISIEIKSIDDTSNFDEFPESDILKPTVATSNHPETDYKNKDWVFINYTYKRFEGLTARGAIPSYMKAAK
# Sequence of UniProt O00238 (whole entry, looked up): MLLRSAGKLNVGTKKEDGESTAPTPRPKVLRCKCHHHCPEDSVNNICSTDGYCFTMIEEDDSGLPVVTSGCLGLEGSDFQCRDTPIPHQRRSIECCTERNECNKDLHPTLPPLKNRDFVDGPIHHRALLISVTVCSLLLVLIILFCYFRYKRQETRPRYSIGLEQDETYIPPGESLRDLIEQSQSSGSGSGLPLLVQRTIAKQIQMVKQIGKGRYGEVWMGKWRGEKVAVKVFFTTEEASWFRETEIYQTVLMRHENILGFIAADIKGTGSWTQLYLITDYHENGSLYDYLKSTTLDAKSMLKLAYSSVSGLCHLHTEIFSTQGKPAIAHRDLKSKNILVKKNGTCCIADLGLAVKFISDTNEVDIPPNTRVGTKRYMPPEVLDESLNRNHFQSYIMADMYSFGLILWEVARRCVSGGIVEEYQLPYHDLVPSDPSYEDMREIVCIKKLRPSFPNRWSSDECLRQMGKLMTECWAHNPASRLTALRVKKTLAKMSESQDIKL

# Study 1
# Structure (SMILES): CC[C@@]1(c2cccc(C(F)(F)F)c2)C2=C(Nc3n[nH]cc31)[C@H](F)C(C)(C)CC2=O (single isomer, unassigned)
# Concentration: 1 µM
target,test,scale,remaining binding [%]
"SRPK3 (Homo sapiens, UniProt Q9UPE1)","kinase binding, KINOMEscan",relative to: DMSO control,100
"Tyrosine-protein kinase JAK2, JH1 (JAK2, Homo sapiens, UniProt O60674)","binding, competition with immobilised ligand",,77
"CDPK1 (Plasmodium falciparum, UniProt P62344)","kinase binding, KINOMEscan",relative to: DMSO control,100
"LCK (Homo sapiens, UniProt P06239)","kinase binding, KINOMEscan",relative to: DMSO control,100
"MAPKAPK5 (Homo sapiens, UniProt Q8IW41)","kinase binding, KINOMEscan",relative to: DMSO control,100
"ERBB2 (Homo sapiens, UniProt P04626)","binding, competition with immobilised ligand",,88
"CDKL1 (Homo sapiens, UniProt Q00532)","binding, competition with immobilised ligand",,61
"Myosin-IIIa (MYO3A, Homo sapiens, UniProt Q8NEV4)","kinase binding, KINOMEscan",relative to: DMSO control,100
"AXL (Homo sapiens, UniProt P30530)","binding, competition with immobilised ligand",,89
"STK38 (Homo sapiens, UniProt Q15208)","binding, competition with immobilised ligand",,49
"PNCK (Homo sapiens, UniProt Q6P2M8)","kinase binding, KINOMEscan",relative to: DMSO control,97
"ULK3 (Homo sapiens, UniProt Q6PHR2)","binding, competition with immobilised ligand",,69
"NEK4 (Homo sapiens, UniProt P51957)","binding, competition with immobilised ligand",,100
"PRKD3 (Homo sapiens, UniProt O94806)","kinase binding, KINOMEscan",relative to: DMSO control,79
"ERBB4 (Homo sapiens, UniProt Q15303)","kinase binding, KINOMEscan",relative to: DMSO control,100
"MELK (Homo sapiens, UniProt Q14680)","kinase binding, KINOMEscan",relative to: DMSO control,88
"MAP3K13 (Homo sapiens, UniProt O43283)","binding, competition with immobilised ligand",,100
"STK36 (Homo sapiens, UniProt Q9NRP7)","binding, competition with immobilised ligand",,100

# Study 2
# SMILES: C[C@@H]1CN(c2ccc(-c3cc(C(=O)NCCOCCOCCOCCOCCNC(=O)/C=C/c4[nH]cc(C(=O)N[C@@H](CC(N)=O)c5ccc(F)c(Cl)c5)c4-c4ccc(Cl)cc4F)ccc3F)cc2NC(=O)c2c[nH]c(=O)cc2C(F)(F)F)C[C@H](C)N1C
# Observed: thermal unfolding
# Technique: differential scanning fluorimetry
# Concentration: 5.5 µM
# Direction: higher = more unfolded
# DCAF1: DDB1- and CUL4-associated factor 1 (DCAF1, Homo sapiens, UniProt Q9Y4B6)
# Sequence of UniProt Q9Y4B6 (whole entry, looked up): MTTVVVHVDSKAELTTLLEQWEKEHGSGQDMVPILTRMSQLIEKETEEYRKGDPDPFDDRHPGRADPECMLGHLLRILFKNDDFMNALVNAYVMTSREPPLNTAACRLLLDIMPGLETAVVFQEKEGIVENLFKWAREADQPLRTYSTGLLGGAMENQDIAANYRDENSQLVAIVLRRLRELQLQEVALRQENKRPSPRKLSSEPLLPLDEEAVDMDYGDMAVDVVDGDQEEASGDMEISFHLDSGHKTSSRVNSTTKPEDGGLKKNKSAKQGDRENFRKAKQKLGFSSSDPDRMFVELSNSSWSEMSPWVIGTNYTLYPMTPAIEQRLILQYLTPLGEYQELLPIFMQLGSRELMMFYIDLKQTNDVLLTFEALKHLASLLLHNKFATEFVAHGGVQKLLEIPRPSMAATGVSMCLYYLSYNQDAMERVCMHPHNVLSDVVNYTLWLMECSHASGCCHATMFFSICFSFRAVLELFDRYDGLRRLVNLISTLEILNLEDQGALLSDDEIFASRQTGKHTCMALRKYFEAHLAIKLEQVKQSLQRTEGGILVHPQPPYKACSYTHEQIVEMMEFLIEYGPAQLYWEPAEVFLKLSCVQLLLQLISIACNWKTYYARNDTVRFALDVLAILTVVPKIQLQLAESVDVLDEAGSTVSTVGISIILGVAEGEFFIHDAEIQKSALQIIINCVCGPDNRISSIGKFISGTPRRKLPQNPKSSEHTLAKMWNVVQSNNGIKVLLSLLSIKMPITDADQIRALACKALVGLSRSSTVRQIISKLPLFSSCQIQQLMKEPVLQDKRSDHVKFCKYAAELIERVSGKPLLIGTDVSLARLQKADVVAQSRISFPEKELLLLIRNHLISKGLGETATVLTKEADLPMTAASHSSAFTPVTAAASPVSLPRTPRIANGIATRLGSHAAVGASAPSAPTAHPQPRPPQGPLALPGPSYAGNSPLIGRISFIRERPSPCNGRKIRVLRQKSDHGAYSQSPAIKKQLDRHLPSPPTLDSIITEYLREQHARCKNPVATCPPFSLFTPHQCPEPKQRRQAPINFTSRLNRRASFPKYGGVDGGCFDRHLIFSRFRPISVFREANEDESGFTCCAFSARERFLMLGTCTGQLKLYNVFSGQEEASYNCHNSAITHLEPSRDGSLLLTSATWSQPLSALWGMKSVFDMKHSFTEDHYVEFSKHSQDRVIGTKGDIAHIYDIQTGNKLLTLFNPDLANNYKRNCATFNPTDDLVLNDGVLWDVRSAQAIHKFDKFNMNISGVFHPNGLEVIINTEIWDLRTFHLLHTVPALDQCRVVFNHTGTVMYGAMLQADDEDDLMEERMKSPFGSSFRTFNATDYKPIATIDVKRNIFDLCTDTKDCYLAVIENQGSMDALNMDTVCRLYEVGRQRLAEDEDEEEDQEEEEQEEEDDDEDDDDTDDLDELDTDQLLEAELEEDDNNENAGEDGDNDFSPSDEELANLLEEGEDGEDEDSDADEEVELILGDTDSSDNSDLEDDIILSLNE
# WDR5: WD repeat-containing protein 5 (WDR5, Homo sapiens, UniProt P61964)
target,setting,SYPRO Orange fluorescence
DCAF1,80.81 °C,44300 a.u.
DCAF1,89.61 °C,35500 a.u.
WDR5,39 °C,14100 a.u.
WDR5,68.21 °C,14500 a.u.
WDR5,59.81 °C,15700 a.u.
DCAF1,50.2 °C,15300 a.u.
WDR5,53.21 °C,16800 a.u.
WDR5,83.81 °C,50200 a.u.
WDR5,55.61 °C,16900 a.u.
DCAF1,35 °C,10200 a.u.
WDR5,94.41 °C,45900 a.u.

# Study 3
# Target: Membrane-associated tyrosine- and threonine-specific cdc2-inhibitory kinase (PKMYT1, Homo sapiens, UniProt Q99640)
# Sequence of UniProt Q99640 (whole entry, looked up): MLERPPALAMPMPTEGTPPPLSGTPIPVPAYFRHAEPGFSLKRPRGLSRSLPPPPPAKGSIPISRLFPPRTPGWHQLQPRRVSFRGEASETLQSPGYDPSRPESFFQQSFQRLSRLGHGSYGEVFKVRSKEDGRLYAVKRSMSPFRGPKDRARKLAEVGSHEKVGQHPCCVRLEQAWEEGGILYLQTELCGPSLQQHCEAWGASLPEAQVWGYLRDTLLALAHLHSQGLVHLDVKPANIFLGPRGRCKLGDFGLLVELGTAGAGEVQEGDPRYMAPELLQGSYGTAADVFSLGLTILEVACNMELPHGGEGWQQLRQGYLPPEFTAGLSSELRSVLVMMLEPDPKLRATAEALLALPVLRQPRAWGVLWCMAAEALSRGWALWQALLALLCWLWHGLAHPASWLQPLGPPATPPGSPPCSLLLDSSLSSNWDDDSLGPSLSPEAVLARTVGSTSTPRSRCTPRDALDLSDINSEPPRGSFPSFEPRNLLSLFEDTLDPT
# Action: degrader
# Technique: automated immunoblot (Jess)
# Cell line: HCC1569
# Time: 24 h
Compound,DC50 [nM]
Cc1ccc(O)c(C)c1-c1cnc2[nH]c(-c3cnc(N4CCC(CN5CCC(c6ccc(NC7CCC(=O)NC7=O)cc6F)CC5)CC4)nc3)cc2c1C#N (stereo not shown),0.5
Cc1ccc(O)c(C)c1-c1cnc2[nH]c(-c3cnc(N4CCC(CN5CCN(c6ccc(NC7CCC(=O)NC7=O)cc6F)CC5)CC4)nc3)cc2c1C#N (stereo not shown),0.6
Cc1ccc(O)c(C)c1-c1cnc2[nH]c(-c3cnc(N4CCC(CCN5CCN(c6ccc(NC7CCC(=O)NC7=O)cc6F)CC5)CC4)nc3)cc2c1C#N (stereo not shown),0.3
Cc1ccc(O)c(C)c1-c1cnc2[nH]c(-c3cnc(N4CCC(CN5CCN(c6cc7c(cc6F)n(C6CCC(=O)NC6=O)c(=O)n7C)CC5)CC4)nc3)cc2c1C#N (stereo not shown),< 0.1
"Cc1ccc(O)c(C)c1-c1cnc2[nH]c(-c3cnc(N4CCC5(CC4)CC(N4CCN(c6ccc(N[C@H]7CCC(=O)N(C)C7=O)cc6F)CC4)CO5)nc3)cc2c1C#N (single isomer, unassigned)",> 1000
Cc1ccc(O)c(C)c1-c1cnc2[nH]c(-c3cnc(N4CCC(CN5CCN(c6ccc7c(c6)C(=O)N(C6CCC(=O)NC6=O)C7=O)CC5)CC4)nc3)cc2c1C#N (stereo not shown),0.5
Cc1ccc(O)c(C)c1-c1cnc2[nH]c(-c3cnc(N4CCC(CN5CCN(c6cc7c(cc6F)c(N6CCC(=O)NC6=O)nn7C)CC5)CC4)nc3)cc2c1C#N,0.4
Cc1ccc(O)c(C)c1-c1cnc2[nH]c(-c3cnc(N4CCC(CN5CCN(c6c(F)cc(NC7CCC(=O)NC7=O)cc6F)CC5)CC4)nc3)cc2c1C#N (racemic),0.3

# Study 4
# SMILES: O=C(Nc1ccccc1)Nc1cccc(Oc2ccc3nccn3n2)c1
target,test,setting,scale,remaining binding [%]
"MAP2K4 (Homo sapiens, UniProt P45985)",binding,1 µM,,100
"FGFR3 (Homo sapiens, UniProt P22607, G697C)",binding,1 µM,,91
"CAMK1 (Homo sapiens, UniProt Q14012)",binding,1 µM,,100
"CDC42BPB (Homo sapiens, UniProt Q9Y5S2)","binding, competition with immobilised ligand",1 µM,,96
"FRK (Homo sapiens, UniProt P42685)","binding, competition with immobilised ligand",1 µM,,100
"DDR1 (Homo sapiens, UniProt Q08345)","binding, competition with immobilised ligand",1 µM,,2.2
"CASK (Homo sapiens, UniProt O14936)",binding,1 µM,,84
"MAPK12 (Homo sapiens, UniProt P53778)",cell-free binding,1 µM,,81
"LCK (Homo sapiens, UniProt P06239)","binding, competition with immobilised ligand",1 µM,,67
"FGFR3 (Homo sapiens, UniProt P22607)",cell-free binding,1 µM,,100
"IRAK3 (Homo sapiens, UniProt Q9Y616)",binding,1 µM,,99
"Non-receptor tyrosine-protein kinase TYK2, JH2 (TYK2, Homo sapiens, UniProt P29597)","binding, competition with immobilised ligand",1 µM,,99
"EPHA3 (Homo sapiens, UniProt P29320)","binding, competition with immobilised ligand",1 µM,,66
"EPHB3 (Homo sapiens, UniProt P54753)","binding, competition with immobilised ligand",1 µM,,100
"BMPR1B (Homo sapiens, UniProt O00238)","binding, competition with immobilised ligand",1 µM,,100
"PNCK (Homo sapiens, UniProt Q6P2M8)",binding,1 µM,,100
"PLK1 (Homo sapiens, UniProt P53350)",binding,1 µM,,67
"CHEK2 (Homo sapiens, UniProt O96017)",binding,1 µM,,99
FLT3 ITD,KINOMEscan,1000 nM,relative to: control,100
"NEK7 (Homo sapiens, UniProt Q8TDX7)",binding,1 µM,,100
"Aurora kinase B (AURKB, Homo sapiens, UniProt Q96GD4)","binding, competition with immobilised ligand",1 µM,,92
